Published values gathered from unrelated publications.
Each line is one published result; not all experiments were run side by side. Several values in a cell are separate wells, animals, samples, runs or records. ± gives the spread as reported.
Chain of UniProt P08631 (whole entry, looked up): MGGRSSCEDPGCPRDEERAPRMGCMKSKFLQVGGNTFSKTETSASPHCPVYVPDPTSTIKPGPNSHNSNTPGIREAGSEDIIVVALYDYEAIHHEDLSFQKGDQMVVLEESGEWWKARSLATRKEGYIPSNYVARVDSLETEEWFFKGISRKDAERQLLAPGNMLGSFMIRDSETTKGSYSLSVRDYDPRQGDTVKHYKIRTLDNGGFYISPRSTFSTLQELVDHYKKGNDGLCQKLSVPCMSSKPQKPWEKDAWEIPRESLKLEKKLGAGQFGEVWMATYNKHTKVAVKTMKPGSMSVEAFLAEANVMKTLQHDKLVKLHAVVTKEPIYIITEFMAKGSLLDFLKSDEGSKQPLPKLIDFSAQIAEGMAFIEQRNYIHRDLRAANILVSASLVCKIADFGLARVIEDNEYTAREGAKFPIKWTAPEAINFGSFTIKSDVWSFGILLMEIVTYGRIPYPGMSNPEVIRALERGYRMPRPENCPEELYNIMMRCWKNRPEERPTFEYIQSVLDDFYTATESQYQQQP
Chain of UniProt P30411 (whole entry, looked up): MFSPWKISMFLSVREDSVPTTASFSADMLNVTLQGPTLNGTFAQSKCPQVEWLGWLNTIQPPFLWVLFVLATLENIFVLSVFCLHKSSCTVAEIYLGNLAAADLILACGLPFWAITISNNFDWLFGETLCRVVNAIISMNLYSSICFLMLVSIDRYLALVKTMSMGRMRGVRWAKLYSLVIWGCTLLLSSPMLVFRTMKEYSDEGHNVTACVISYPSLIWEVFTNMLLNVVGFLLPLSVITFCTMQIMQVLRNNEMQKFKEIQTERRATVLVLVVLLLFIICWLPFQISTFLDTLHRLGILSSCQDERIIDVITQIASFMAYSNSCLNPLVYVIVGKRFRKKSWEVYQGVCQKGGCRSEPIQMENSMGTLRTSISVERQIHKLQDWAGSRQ

O=S(=O)(c1ccc(-c2ccc3ncnc(Nc4ccc(O)c(Cl)c4)c3c2)cc1)N1CCOCC1  inhibition (Trypanosoma cruzi; intracellular amastigote growth, β-galactosidase CPRG; 3T3, Tulahuen, β-galactosidase-expressing; 10 µM, 96 h): 14%
C#CCN1C(=O)C(CC#C)(C(=O)OCC)Oc2ccccc21 (stereo not drawn)  inhibition (Rhizoctonia solani; microbial growth; 50 µg/mL): < 25%
O=S(=O)(c1ccc(-c2ccc3ncnc(Nc4ccc(OCc5cccc(F)c5)c(Cl)c4)c3c2)cc1)N1CCCC1  inhibition (Trypanosoma cruzi; intracellular amastigote growth; NIH 3T3, Tulahuen, β-galactosidase-expressing; 10 µM, 96 h): 10%
CCN(CC)CCO.O=C(O)C(Cl)Cl  inhibition (Solanum nigrum; herbicidal activity; 15 mg/mL, 21 days, post-emergence greenhouse): 38%
CC(C)(C)C(=O)OCOP(=O)(OCOC(=O)C(C)(C)C)C1CCCN(O)C1=O (stereo not drawn)  GI50 (SF-268): 441 nM
CCOC(=O)C1(Cc2cc(F)cc(F)c2)Oc2cc(F)ccc2N(Cc2cc(F)cc(F)c2)C1=O (stereo not drawn)  inhibition (Setaria viridis; fresh weight, greenhouse postemergence; postemergence, 150 g ai/ha, 21 days): 33.7 ± 1.2%
COc1cc(Nc2ncnc3ccc(-c4ccc(S(=O)(=O)N5CCOCC5)cc4)cc23)ccc1OCc1cccc(F)c1  inhibition (Trypanosoma cruzi; intracellular amastigote growth, β-galactosidase CPRG; 3T3, Tulahuen, β-galactosidase-expressing; 10 µM, 96 h): 2%
CCc1nn(C)c2nc(-c3ccc(C(=O)O)cc3)nc(NCc3ccccc3)c12  inhibition (Cryptosporidium parvum; parasite growth, immunofluorescence imaging; HCT-8, Iowa; 8.22 nM): -23.9% and -6.18%
COc1ccccc1-c1n[nH]c2nc(NC3CCN(C(=O)Cc4ccc(F)cc4F)CC3)ncc12  relative abundance (bead binding, competition bead pull-down, item: LINJ.03.0380; Leishmania donovani extract; 10 µM; baseline: vehicle): 1.11
CC(O)CN(CC(C)O)CC(C)O.O=C(O)C(Cl)Cl (stereo not drawn)  inhibition (Solanum nigrum; herbicidal activity; 15 mg/mL, 21 days, post-emergence greenhouse): -39%
O=C1NC(=O)c2c1c1cc(F)c[n+]3c1c1c2c2cc(O)ccc2[n]1[Ru-4]312([N]=C=S)[S+]3CC[S+]1CC[S+]2CC3 (stereo not drawn)  remaining activity (HCK (Homo sapiens, UniProt P08631); enzyme activity; 100 nM, human enzyme, added: 10 µM ATP; baseline: untreated): 15%
O=C(NNc1ccc(Cl)cc1)c1nnc(CC23CC4CC(CC(C4)C2)C3)o1  inhibition (Rhizoctonia solani; microbial growth; 50 µg/mL): 68.7%
CCOC(=O)C1(Cc2ccc(C#N)cc2)Oc2cc(F)ccc2N(Cc2ccc(C#N)cc2)C1=O (stereo not drawn)  inhibition (Setaria viridis; fresh weight, greenhouse postemergence; postemergence, 150 g ai/ha, 21 days): 61.5 ± 0.89%
Fc1cccc(COc2ccc(Nc3ncnc4ccc(-c5cccc(-n6cccn6)c5)cc34)cc2Cl)c1  inhibition (Trypanosoma cruzi; intracellular amastigote growth; NIH 3T3, Tulahuen, β-galactosidase-expressing; 10 µM, 96 h): 10%
CCOC(=O)C1(Cc2cccc(C(C)C)c2)Oc2cc(F)ccc2N(Cc2cccc(C(C)C)c2)C1=O (stereo not drawn)  inhibition (Setaria viridis; fresh weight, greenhouse postemergence; postemergence, 150 g ai/ha, 21 days): 46.7 ± 1.2%
COc1ccccc1-c1n[nH]c2nc(N[C@H]3CC[C@H](NS(=O)(=O)CC(C)C)CC3)ncc12  relative abundance (bead binding, competition bead pull-down, item: LINJ.29.2420; Leishmania donovani extract; 10 µM; baseline: vehicle): 0.86
O=C1NC2(CC2)COc2ncc(F)cc2[C@H]2COCCN2c2ccn3ncc1c3n2  reticulocytes (Sprague-Dawley rat, male, blood; oral, 2.5 mg/kg/day, end of treatment, 4-week repeated-dose toxicity; baseline: red blood cells): 2.58 ± 3.07%
CS(C)(=O)=Nc1ccc(-c2ccc(-c3nc4cc(O[C@@H]5CO[C@H]6[C@@H]5OC[C@H]6O)[nH]c4cc3F)cc2)cc1  inhibition (BDKRB2 (Homo sapiens, UniProt P30411); calcium signal, antagonist; 10 µM): 49%

Excerpt of the above:
Fc1cccc(COc2ccc(Nc3ncnc4ccc(-c5cccc(-n6cccn6)c5)cc34)cc2Cl)c1  inhibition (Trypanosoma cruzi; intracellular amastigote growth; NIH 3T3, Tulahuen, β-galactosidase-expressing; 10 µM, 96 h): 10%
CCOC(=O)C1(Cc2cccc(C(C)C)c2)Oc2cc(F)ccc2N(Cc2cccc(C(C)C)c2)C1=O (stereo not drawn)  inhibition (Setaria viridis; fresh weight, greenhouse postemergence; postemergence, 150 g ai/ha, 21 days): 46.7 ± 1.2%
